# Experimental data gathered from unrelated publications.
# “And” joins repeats or separate records; there may be more than shown. ± gives the spread as reported.
# Sequence of UniProt Q13164 (whole entry, looked up): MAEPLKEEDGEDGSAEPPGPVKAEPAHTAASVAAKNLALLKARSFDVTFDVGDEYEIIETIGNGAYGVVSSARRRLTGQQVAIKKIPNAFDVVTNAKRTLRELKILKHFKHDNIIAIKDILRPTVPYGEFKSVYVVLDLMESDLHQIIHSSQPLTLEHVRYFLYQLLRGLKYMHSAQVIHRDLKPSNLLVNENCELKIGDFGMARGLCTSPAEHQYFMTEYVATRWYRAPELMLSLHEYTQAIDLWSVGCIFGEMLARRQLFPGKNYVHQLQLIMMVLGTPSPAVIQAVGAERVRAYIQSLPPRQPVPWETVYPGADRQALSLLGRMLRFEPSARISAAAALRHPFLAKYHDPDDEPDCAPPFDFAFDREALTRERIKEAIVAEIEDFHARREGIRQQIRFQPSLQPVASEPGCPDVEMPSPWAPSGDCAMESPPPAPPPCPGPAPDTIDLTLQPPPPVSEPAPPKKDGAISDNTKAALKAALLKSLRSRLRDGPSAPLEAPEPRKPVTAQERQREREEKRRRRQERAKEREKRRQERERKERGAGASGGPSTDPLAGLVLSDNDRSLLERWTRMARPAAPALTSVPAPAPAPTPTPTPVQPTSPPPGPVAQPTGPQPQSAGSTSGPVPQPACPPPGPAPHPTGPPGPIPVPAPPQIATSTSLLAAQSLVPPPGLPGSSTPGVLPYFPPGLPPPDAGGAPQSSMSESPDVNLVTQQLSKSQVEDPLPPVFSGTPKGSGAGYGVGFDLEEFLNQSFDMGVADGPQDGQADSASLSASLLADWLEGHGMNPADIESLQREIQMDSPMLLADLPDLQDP
Structure (SMILES),tested on,test,system,conditions,scale,quantity,value
CN[C@H]1CCN(C(=O)c2c(C)cc(C(F)(F)F)nc2-c2ccnc3cc(CN4C(=O)C5C(C4=O)C5(C)C)sc23)C1 (stereo partly shown),,,"CT26 tumour-bearing mouse, blood",dose not given,,blood lymphocyte count,decreased
CSCC[C@@H]1NC(=O)[C@H](C(C)C)NC(=O)[C@H](CCCNC(=N)N)NC(=O)CNC(=O)[C@@H]2CCCN2C(=O)[C@@H](NC(=O)CNC(=O)[C@H](CO)NC(=O)CNC(=O)[C@H](CO)NC(=S)Nc2ccc(C[C@H]3CN(CC(=O)O)CCN(CC(=O)O)CCN3CC(=O)O)cc2)CSSC[C@@H](C(N)=O)NC(=O)[C@@H]2CCCN2C(=O)CNC(=O)[C@H](CCC(=O)O)NC(=O)[C@H](CC(=O)O)NC(=O)[C@H](CC(=O)O)NC(=O)CNC(=O)[C@H](CC(C)C)NC(=O)[C@H](Cc2c[nH]cn2)NC(=O)[C@H](CC(C)C)NC(=O)CNC(=O)[C@H](Cc2c[nH]cn2)NC1=O [copper-64 labelled],,dynamic PET,"CD rat, myocardial infarction model, left ventricular blood pool","intravenous, 18.5 MBq, 15 to 60 min",,half-life,27.5 ± 2.3 min
N#[11C]c1ccc(-c2csc(NN=C3CCCC3)n2)cc1,,,"C57BL/6 mice, male, kidney","intravenous, 3 MBq, 30 min",,radioactivity uptake,5.89 ± 0.34 %ID/g
C=Cc1c(C)c2cc3nc(c(CC(=O)[O-])c4[n-]c(cc5nc(cc1[n-]2)C(C)=C5CC)c(C)c4C(=O)[O-])C(CCC(=O)[O-])C3C.[Cu+2].[Na+].[Na+].[Na+] (stereo not shown),,,"Wistar rat, male","oral, 1000 mg/kg daily, 28 days",,blood urea nitrogen,23.5 ± 2.26 mg/dL
O=C1NC2(CC2)COc2ncc(F)cc2[C@H]2COCCN2c2ccn3ncc1c3n2,,,"Sprague-Dawley rat, female, serum","oral, 5 mg/kg/day, 4 weeks daily, end of recovery period",,alkaline phosphatase activity,48.4 ± 12.4 U/L
COc1ccc([C@@H]2CC(=O)c3c(O)cc(O[C@@H]4O[C@H](CO)[C@@H](O)[C@H](O)[C@H]4O[C@@H]4O[C@@H](C)[C@H](O)[C@@H](O)[C@H]4O)cc3O2)cc1O,,,"Sprague-Dawley rat, male, obese, faeces","oral, 100 mg/kg, 24-36 h",,faecal excretion,511 ± 296 ng
C#Cc1c(F)ccc2cc(O)cc(-c3ncc4c(N5CC6CCC(C5)N6C(=O)OCOC(=O)CCC)nc(OC[C@@]56CCCN5C[C@H](F)C6)nc4c3F)c12,,chemical stability,simulated intestinal fluid,"1 µM, 30 min",,compound remaining,65.4%
CSCC[C@H](NC(=O)CNC(=O)[C@H](CCCCN)NC(=O)[C@H](CC(C)C)NC(=O)[C@@H]1CCCN1C(=O)[C@H](CO)NC(=O)[C@H](Cc1c[nH]cn1)NC(=O)[C@H](Cc1c[nH]c2ccccc12)NC(=O)[C@H](CCCNC(=N)N)NC(=O)[C@H](CC(C)C)NC(=O)[C@H](CCCNC(=N)N)NC(=O)[C@H](Cc1c[nH]c2ccccc12)NC(=O)[C@H](CS)NC(=O)CCCCCNC(=O)CN1CCN(CC(=O)O)CCN(CC(=O)O)CCN(CC(=O)O)CC1)C(=O)O [copper-64 labelled],,,"C57BL/6J mice, B16-F10 tumour","intravenous, 1.85 MBq, 2 h",reference: tumour over muscle,tumour-to-muscle ratio,10.8
CC(=O)NCCCC[C@@H]1NC(=O)[C@H](Cc2c[nH]c3c(C)cccc23)NC(=O)[C@H]([C@@H](C)O)NC(=O)[C@H](CC(N)=O)NC(=O)[C@@H](NC(C)=O)C(C)(C)SSC(C)(C)[C@@H](C(=O)N[C@@H](Cc2ccc(OCCN)cc2)C(=O)N[C@@H](Cc2ccc3ccccc3c2)C(=O)NC2(C(=O)N[C@@H](CCC(=O)O)C(=O)N[C@@H](CC(N)=O)C(=O)N[C@@H](Cc3cccnc3)C(=O)N(C)CC(N)=O)CCOCC2)NC1=O,,,"cynomolgus monkey, colon","intravenous, 1 mg/kg",reference: plasma concentration,tissue concentration,48%
COc1ccccc1-c1n[nH]c2nc(N[C@H]3CC[C@H](NS(=O)(=O)CC(C)C)CC3)ncc12,,"bead binding, competition bead pull-down, refers to: LINJ.36.2140",Leishmania donovani extract,10 µM,reference: vehicle,relative abundance,0.89
CC(C)(C)C(=O)OCOP(=O)(OCOC(=O)C(C)(C)C)C1CCCN(O)C1=O (stereo not shown),RXF 393,,,,,log GI50,-6.44 log M
CC(C)[C@@H]1NC(=O)CNC(=O)[C@H](CC(N)=O)NC(=O)[C@H](CCCNC(=N)N)NC(=O)[C@H](Cc2ccc(O)cc2)NC(=O)[C@H](C(C)C)NC(=O)[C@@H](NC(=O)[C@@H](NC(=O)[C@H](CC(N)=O)NC(=O)[C@H](Cc2c[nH]c3ccccc23)NC(=O)[C@H](C)NC(=O)[C@H](Cc2ccccc2)NC(=O)CNC(=O)[C@H](CCCCN)NC(=O)[C@H](Cc2ccccc2)NC(=O)[C@H](Cc2ccccc2)NC(=O)[C@H](CCCCN)NC(=O)OCC2c3ccccc3-c3ccccc32)C(C)C)CSSC[C@@H](C(=O)N[C@@H](Cc2c[nH]cn2)C(=O)N[C@@H](CCCNC(=N)N)C(=O)N[C@@H](CCCNC(=N)N)C(=O)N[C@@H](C)C(=O)N[C@@H](CC(N)=O)C(N)=O)NC(=O)[C@H](C(C)C)NC(=O)[C@H](CCCNC(=N)N)NC1=O,,,"ICR mice, serum","intraductal mammary, 5 mg/kg, day 5",,total protein,53.9 ± 1.3 g/L
CN(C)[C@H]1C[C@@]23CC[C@@]4(O2)C(=CC[C@]2(C)[C@@H](c5ccc6ccncc6c5)CC[C@H]24)C=C3[C@@H](O)[C@@H]1O,"MAPK7 (Homo sapiens, UniProt Q13164)","ATP probe labelling, inhibitor, KiNativ profiling",,1 µM,,inhibition,1.8%
CC(C)[C@H](NC(=O)[C@H](Cc1c[nH]c2ccccc12)NC(=O)[C@H](CCCNC(=N)N)NC(=O)[C@H](CCCNC(=N)N)NC(=O)[C@@H](NC(=O)[C@@H](NC(=O)[C@H](CCCNC(=N)N)NC(=O)[C@@H](NC(=O)[C@@H](NC(=O)[C@H](CCCNC(=N)N)NC(=O)[C@H](CCCNC(=N)N)NC(=O)[C@@H](NC(=O)[C@H](Cc1c[nH]c2ccccc12)NC(=O)[C@H](CCCNC(=N)N)NC(=O)[C@H](CCCNC(=N)N)NC(=O)[C@@H](NC(=O)[C@H](CCCNC(=N)N)NC(=O)[C@H](CCCNC(=N)N)NC(=O)[C@@H](NC(=O)[C@H](Cc1c[nH]c2ccccc12)NC(=O)[C@H](CCCNC(=N)N)NC(=O)[C@@H](N)CCCNC(=N)N)C(C)C)C(C)C)C(C)C)C(C)C)C(C)C)C(C)C)C(C)C)C(=O)N[C@@H](CCCNC(=N)N)C(=O)N[C@@H](CCCNC(=N)N)C(=O)O,,refers to: lung,mice,"intravenous, 30 mg/kg, after 2 doses, recovery",reference: body weight,organ weight,0.96 ± 0.06%
NC1CCN(C(=O)Oc2ccc(C3CCCC4(C3)OOC3(O4)C4CC5CC(C4)CC3C5)cc2)CC1 (racemic),,,"male ICR mice, plasma","oral, 50 mg/kg",,Tmax,2.17 h
COc1cnc2cccc(N3CCc4c(cc(Cn5ccnc5)cc4-c4cn(C)nc4C(F)(F)F)C3=O)c2c1,,,"BALB/c nude mice, MV4-11 xenograft","intraperitoneal, 100 mg/kg, day 31",,body weight,22.7 g and 24.6 g and 24.1 g and 23.4 g
CCN(CC)CCOc1ccc(-c2nnn(Cc3ccc(OC)cc3)c2N)cc1,,,beagle dog,"oral, at least 40 mg/kg",,systolic blood pressure increase,≤ 14%
COc1ccccc1-c1n[nH]c2nc(NC3CCN(C(=O)Cc4ccc(F)cc4F)CC3)ncc12,,"bead binding, competition bead pull-down, refers to: LINJ.29.2220",Leishmania donovani extract,10 µM,reference: vehicle,relative abundance,0.9
CSCC[C@H](N)C(=O)N[C@@H](C)C(=O)N[C@@H](Cc1c[nH]c2ccccc12)C(=O)N[C@@H](Cc1c[nH]cn1)C(=O)N[C@@H](CC(=O)O)C(=O)N[C@@H](CC(=O)O)C(=O)N[C@@H](CCC(=O)O)C(=O)N[C@@H](CCC(=O)O)C(=O)N[C@@H](Cc1ccccc1)C(=O)N[C@@H](C)C(=O)N[C@@H](CCCNC(=N)N)C(=O)N[C@@H](CCCNC(=N)N)C(=O)N[C@@H](CCCNC(=N)N)C(=O)N[C@@H](CCCNC(=N)N)C(=O)NCCCCCC(=O)NCCCCC(NC(=O)CCCCCNC(=O)[C@H](CCCNC(=N)N)NC(=O)[C@H](CCCNC(=N)N)NC(=O)[C@H](CCCNC(=N)N)NC(=O)[C@H](CCCNC(=N)N)NC(=O)[C@H](C)NC(=O)[C@H](Cc1ccccc1)NC(=O)[C@H](CCC(=O)O)NC(=O)[C@H](CCC(=O)O)NC(=O)[C@H](CC(=O)O)NC(=O)[C@H](CC(=O)O)NC(=O)[C@H](Cc1c[nH]cn1)NC(=O)[C@H](Cc1c[nH]c2ccccc12)NC(=O)[C@H](C)NC(=O)[C@@H](N)CCSC)C(=O)NCCCCC(NC(=O)C(CCCCNC(=O)CCCCCNC(=O)[C@H](CCCNC(=N)N)NC(=O)[C@H](CCCNC(=N)N)NC(=O)[C@H](CCCNC(=N)N)NC(=O)[C@H](CCCNC(=N)N)NC(=O)[C@H](C)NC(=O)[C@H](Cc1ccccc1)NC(=O)[C@H](CCC(=O)O)NC(=O)[C@H](CCC(=O)O)NC(=O)[C@H](CC(=O)O)NC(=O)[C@H](CC(=O)O)NC(=O)[C@H](Cc1c[nH]cn1)NC(=O)[C@H](Cc1c[nH]c2ccccc12)NC(=O)[C@H](C)NC(=O)[C@@H](N)CCSC)NC(=O)CCCCCNC(=O)[C@H](CCCNC(=N)N)NC(=O)[C@H](CCCNC(=N)N)NC(=O)[C@H](CCCNC(=N)N)NC(=O)[C@H](CCCNC(=N)N)NC(=O)[C@H](C)NC(=O)[C@H](Cc1ccccc1)NC(=O)[C@H](CCC(=O)O)NC(=O)[C@H](CCC(=O)O)NC(=O)[C@H](CC(=O)O)NC(=O)[C@H](CC(=O)O)NC(=O)[C@H](Cc1c[nH]cn1)NC(=O)[C@H](Cc1c[nH]c2ccccc12)NC(=O)[C@H](C)NC(=O)[C@@H](N)CCSC)C(N)=O (stereo partly shown),,,"C57BL/6 mouse female, brain","dose not given, 6 h",reference: total,mean tissue distribution,0.65%
CC[C@H](C)[C@H](NC(=O)[C@H](CCCCN)NC(=O)CNC(=O)[C@H](CC(C)C)NC(=O)[C@H](Cc1ccccc1)NC(=O)[C@H](CCCCN)NC(=O)[C@H](CO)NC(=O)[C@H](Cc1ccccc1)NC(=O)[C@H](Cc1c[nH]c2ccccc12)NC(=O)[C@H](CCC(N)=O)NC(=O)[C@@H](NC(=O)[C@H](Cc1ccccc1)NC(=O)CCCCCNC(=O)CN1CCN(CC(=O)O)CCN(CC(=O)O)CCN(CC(=O)O)CC1)C(C)C)C(=O)N[C@@H](CCC(=O)O)C(=O)N1CCC[C@H]1C(=O)N[C@@H](CC(=O)O)C(=O)N[C@H](C(=O)N[C@@H](CO)C(=O)N[C@@H](CCC(N)=O)C(=O)N[C@H](C(=O)N[C@@H](CCC(N)=O)C(=O)N[C@@H](CC(=O)O)C(=O)N1CCC[C@H]1C(=O)N[C@@H](CC(N)=O)C(=O)N[C@@H](CC(=O)O)C(=O)N[C@@H](CCC(N)=O)C(=O)N[C@@H](Cc1ccc(O)cc1)C(=O)N[C@@H](CCC(=O)O)C(=O)N1CCC[C@H]1C(=O)N[C@@H](Cc1ccccc1)C(=O)O)C(C)C)C(C)C [copper-64 labelled],,,"C57BL/6 mice, male, naive, brown fat",2 h,,tissue uptake,2.93 ± 0.5 %ID/g
CCOc1ccccc1-n1c(CN2CCNCC2)nc2ccccc2c1=O,,,"C57BL/6 mouse, male, plasma","intravenous, 1 mg/kg",,clearance,35.8 mL/min/kg
O=C(CN1C(=O)C2(CCN(C(=O)c3ccc4[nH]ncc4n3)CC2)c2c(Br)cccc21)NCC(F)(F)F,,,"male C57BL/6 mouse, plasma","oral, 10 mg/kg",,bioavailability,23.4%

# Repeated from above:
Structure (SMILES),tested on,test,system,conditions,scale,quantity,value
CN[C@H]1CCN(C(=O)c2c(C)cc(C(F)(F)F)nc2-c2ccnc3cc(CN4C(=O)C5C(C4=O)C5(C)C)sc23)C1 (stereo partly shown),,,"CT26 tumour-bearing mouse, blood",dose not given,,blood lymphocyte count,decreased
